Results of several laboratories.
Protocols differ between the studies behind these lines. ± marks the error that the study gave.

`COC(=O)C1=CO[C@@H](O)[C@@H]2C(Cn3cc(C(O)(c4ccccc4)c4ccccc4)nn3)=CC[C@H]12` gave a viability of 73 ± 3.1% (SK-N-SH; neuroprotection, MTT; 0.075 µM, 24 h, with: 250 µM H2O2).
`CSCC[C@H](NC(=O)[C@H](CC(C)C)NC(=O)[C@H](Cc1c[nH]cn1)NC(=O)CNC(=O)[C@@H](NC(=O)[C@H](C)NC(=O)[C@H](Cc1c[nH]c2ccccc12)NC(=O)[C@H](CCC(N)=O)NC(=O)CCCCCNC(=O)CCN(CCNC(=O)c1ccc(F)cc1)CCC(=O)NCCCC[C@@H]1NC(=O)[C@@H](Cc2ccc(O)cc2)NC(=O)[C@H](CC(=O)O)NC(=O)CNC(=O)[C@H](CCCNC(=N)N)NC1=O)C(C)C)C(N)=O` [fluorine-18 labelled] gave a cellular uptake of 4.68 ± 0.26% (PC-3; 60 min, 37 °C; baseline: added radioactivity).
The GI50 of `CC[C@H](C)[C@@H](OC(=O)[C@@H](NC(=O)[C@H](C)OC(=O)[C@H](NC(=O)[C@H](OC(=O)[C@@H](NC(=O)[C@@H](C)OCc1ccccc1)C(C)C)[C@@H](C)CC)C(C)C)C(C)C)C(=O)N[C@@H](C(=O)OC(C)(C)C)C(C)C` is reported as greater than 10 µg/mL (NCI-460; cell growth or viability).
For `[N]#[Os]([Cl])([Cl])[Cl].c1cnc2c(c1)ccc1cccnc12`, protein level read “increased” (A2780; immunoblot, refers to: p21 and BAX; concentration not given).
Under “SR Ca leak”, `CCOc1c(C(C)(C)O)sc2cnc(Nc3ccc(N4CCC(N5CC6(COC6)C5)CC4)cc3OC)nc12` is recorded as “decreased” (human atrial cardiomyocytes; confocal line scan; 3 and 10 µM; baseline: vehicle).
The viability of `COC(=O)C1=CO[C@@H](OC(C)=O)[C@@H]2C(Cn3cc(CCN4C(=O)c5ccccc5C4=O)nn3)=CC[C@H]12` is reported as 65.5 ± 2.7% (SK-N-SH; neuroprotection, MTT; 0.6 µM, 24 h, with: 250 µM H2O2).
Under “number of down-regulated transcripts”, `CN1C(=O)C2(Cc3ccc(CC45SSC(CO)(C(=O)N4C)N(C)C5=O)cc3)SSC1(CO)C(=O)N2C` (racemic) is recorded as 6 (MCF7 cells; microarray; 600 nM, fold change at least 4.0, with: DFO 300 µM; baseline: DFO alone).
`COC(=O)C1=CO[C@@H](OC(C)=O)[C@@H]2C(Cn3cc(COCc4ccc(OC)c(OC)c4)nn3)=CC[C@H]12` gave a viability of 78.1 ± 0.4% (SK-N-SH; neuroprotection, MTT; 0.075 µM, 24 h, with: 250 µM H2O2).
For `CCCCCCCCCCCCCC(=O)NCC(=O)N[C@@H](CCCNC(=N)N)C(=O)N[C@@H](Cc1c[nH]c2ccccc12)C(=O)N[C@@H](CCCCN)C(=O)N[C@H](C(=O)N[C@@H](Cc1ccccc1)C(=O)N[C@@H](CCCCN)C(=O)N[C@@H](CCCCN)C(=O)N[C@H](C(=O)N[C@@H](CCC(=O)O)C(=O)N[C@@H](CCCCN)C(=O)N[C@H](C(=O)NCC(=O)N[C@@H](CCC(N)=O)C(=O)N[C@@H](CC(N)=O)C(=O)N[C@H](C(=O)N[C@@H](CCCNC(=N)N)C(=O)N[C@@H](CC(=O)O)C(=O)NCC(=O)N[C@H](C(=O)N[C@H](C(=O)N[C@@H](CCCCN)C(=O)N[C@@H](C)C(=O)NCC(=O)N1CCC[C@H]1C(=O)N[C@@H](C)C(=O)N[C@H](C(=O)N[C@@H](C)C(=O)N[C@H](C(=O)N[C@H](C(=O)NCC(=O)N[C@@H](CCC(N)=O)C(=O)N[C@@H](C)C(=O)N[C@@H](C)C(=O)N[C@H](C(=O)N[C@H](C(N)=O)[C@@H](C)CC)[C@@H](C)O)C(C)C)C(C)C)C(C)C)C(C)C)[C@@H](C)CC)[C@@H](C)CC)C(C)C)[C@@H](C)CC)[C@@H](C)CC`, ROS level read “increased” (Jurkat; DCFH-DA fluorescence; 3 and 6 µM, 12 h; baseline: PBS control).
For `CN[C@@H](C)C(=O)N[C@H]1CN(C(=O)Cc2ccccc2)CC[C@H]2CC[C@@H](C(=O)NCc3ccc(C(F)(F)F)cc3)N2C1=O`, cell death read “inhibited” (SK-OV-3; TNFα-dependent cell killing, trypan blue; 1 µM, 48 h, with: TNFα-blocking antibody 2 µg/mL).
For `COC(=O)C1=CO[C@@H](OC(C)=O)[C@@H]2C(Cn3cc(C4(O)CCCCC4)nn3)=CC[C@H]12`, the viability was 69.2 ± 1.1% (SK-N-SH; neuroprotection, MTT; 0.15 µM, 24 h, with: 250 µM H2O2).
With `C[C@@H](O)[C@H](NC(=O)[C@@H]1CSSC[C@H](NC(=O)[C@@H](Cc2ccccc2)NC(=O)CN2CCCN3CCN(CCCN(CP(=O)(O)O)CC3)CC2)C(=O)N[C@@H](Cc2ccc(O)cc2)C(=O)N[C@H](Cc2c[nH]c3ccccc23)C(=O)N[C@@H](CCCCN)C(=O)N[C@@H]([C@@H](C)O)C(=O)N1)C(=O)O` [copper-64 labelled] the internalization was 34 ± 0.4% (AR-42J; 4 nM, 240 min; baseline: added activity/mg protein).
`C=CCCCCCCCCCOCc1cn(CC2=CC[C@@H]3C(C(=O)OC)=CO[C@@H](OC(C)=O)[C@H]23)nn1` gave a viability of 63.2 ± 0.3% (SK-N-SH; neuroprotection, MTT; 0.15 µM, 24 h, with: 250 µM H2O2).
`CSCC[C@H](NC(=O)[C@H](CC(C)C)NC(=O)[C@H](Cc1c[nH]cn1)NC(=O)CNC(=O)[C@@H](NC(=O)[C@H](C)NC(=O)[C@H](Cc1c[nH]c2ccccc12)NC(=O)[C@H](CCC(N)=O)NC(=O)CCCCCCCNC(=O)CCC(=O)Nc1ccc(CNC23CNCCNCC(N)(CNCCNC2)CNCCNC3)cc1)C(C)C)C(N)=O` [copper-64 labelled] has an internalization of 54% (PC-3; 15 min; baseline: internalization at 2 h).
`[Cl][Au-]1([Cl])[c]2ccccc2P(c2ccccc2)(c2ccccc2)=[N+]1c1ccccc1` gave an apoptotic cells of roughly 20% (Jurkat Bak knockdown; refers to: annexin V and low ΔΨm; concentration not given, 24 h).
The resistance factor of `CC(C)c1cnn2c(NCc3ccccc3)cc(N[C@@H](CO)[C@H](O)CO)nc12` is reported as 10 fold (HCT-116 resistant to compound; cell growth, sulforhodamine B; 336 h, 2 weeks selection; baseline: resistant over parental HCT-116).
For `CC1=CCC23OC2(C)CCC2C(C[N+](C)(C)C)C(=O)OC2C13.[I-]` (centres unmarked), the inhibition was 89.6% (SR; cell growth or viability, SRB; 8.3 µM).
With `Cc1cccc(Nc2c3c(nc4ccccc24)CCCC3)n1` the viability was 70.3 ± 4.51% (SH-SY5Y; MTT; 50 µM, 1 h pretreatment, 10% FBS, with: H2O2).
Under “fold reversal of IC50”, `COC1CC(OC2CCC3(C)C(CCC45OC46CCC(C(C)=O)C6(C)C(OC(C)=O)C(OC(=O)c4ccccc4)C35)C2)OC(C)C1OC1OC(C)C(O)C(OC)C1O` (centres unmarked) is recorded as 14 (MDA435/LCC6-MDR1; cell growth, MDR reversal, SRB; 10 µM, with: doxorubicin; baseline: doxorubicin alone over combination).
`O=c1c(NCCc2ccc(Br)cc2)c(NC2CCN(Cc3ccccc3)CC2)c1=O` gave a cell survival of 46 ± 1.59% (SH-SY5Y; neuroprotection, MTT; 12.5 µM, 24 h pretreatment, with: H2O2 650 µM for 4 h).
For `COc1ccc2cc1Oc1cc3c(cc1OC)CCN(C)C3Cc1ccc(cc1)Oc1c(O)c(OC)cc3c1C(C2)N(C)CC3` (centres unmarked), the selectivity index was greater than 100 fold (HEK293; baseline: HEK293 CC50 over parasite IC50).
The GI50 of `C=CCc1cc(OC)c(OC)c(OC)c1OC` is reported as greater than 250 µM (SK-OV-3; cell growth or viability, MTT; 72 h).
`Cc1cc(C)c(N2CCN(c3c(C)cc(C)cc3C)C2=[Se])c(C)c1.[Cl][Ag]` gave a resistance factor of 0.4 (LoVo MDR; MTT; baseline: LoVo MDR over LoVo).
For `COC(=O)C1=CO[C@@H](OC(C)=O)[C@@H]2C(Cn3cc(CON4C(=O)c5ccccc5C4=O)nn3)=CC[C@H]12`, the viability was 66.4 ± 0.1% (SK-N-SH; neuroprotection, MTT; 0.3 µM, 24 h, with: 250 µM H2O2).
`COc1ccc(Nc2c3c(nc4ccccc24)CCC(C)C3)nc1` (centres unmarked) gave a viability of 56.8 ± 5.51% (SH-SY5Y; MTT; 50 µM, 1 h pretreatment, 10% FBS, with: H2O2).
The viability of `COC(=O)C1=CO[C@@H](OC(C)=O)[C@@H]2C(Cn3cc(COCc4ccc(OC)cc4)nn3)=CC[C@H]12` is reported as 65.9 ± 0.7% (SK-N-SH; neuroprotection, MTT; 0.15 µM, 24 h, with: 250 µM H2O2).
For `CC=C(C)C(=O)OC1C2C3(C)CCC(OC4CC(OC)C(OC5OC(C)C(OC6OC(CO)C(O)C(O)C6O)C(OC)C5O)C(C)O4)CC3CCC23OC32CCC(C(C)=O)C2(C)C1OC(C)=O` (centres unmarked), “fold reversal of IC50” read 1 (MDA435/LCC6-MDR1; cell growth, MDR reversal, SRB; 10 µM, with: doxorubicin; baseline: doxorubicin alone over combination).
For `COC(=O)C1=CO[C@@H](OC(C)=O)[C@@H]2C(Cn3cc(CCO[Si](C)(C)C(C)(C)C)nn3)=CC[C@H]12`, the viability was 68.6 ± 0.15% (SK-N-SH; neuroprotection, MTT; 0.15 µM, 24 h, with: 250 µM H2O2).
With `CC(C)CC(O)(CC(C)C)c1cn(C(=O)N2CCCC2)nn1` the SILAC ratio was 2.36 ± 0.5 (mouse T-cells; N-terminal labelling enrichment, refers to: TFG N-terminal peptides; 1 nM, 6 h, protein median; baseline: DMSO).
